Experimental data from different studies.
Parts stem from different laboratories: compare values within a part only. Positions count from the first letter of the parent shown.

Block 1
Target: CCND3, cyclin fold, Cln2 fusion (human)
Technique: yeast growth competition, sequencing
Matrix: yeast
Setting: weak parent motif
Relative to: not given
Direction: higher = stronger binding
Starting sequence: ORC1 docking peptide (human); PRARKRLELGNLG; partner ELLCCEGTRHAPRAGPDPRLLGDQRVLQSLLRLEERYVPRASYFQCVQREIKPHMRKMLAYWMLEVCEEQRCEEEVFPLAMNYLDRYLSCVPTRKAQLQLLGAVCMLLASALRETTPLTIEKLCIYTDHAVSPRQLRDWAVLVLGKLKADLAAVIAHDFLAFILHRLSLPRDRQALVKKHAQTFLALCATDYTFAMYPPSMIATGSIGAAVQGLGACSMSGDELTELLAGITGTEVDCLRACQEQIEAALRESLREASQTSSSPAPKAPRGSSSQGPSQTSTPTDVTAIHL
| Change | normalised enrichment score |
| --- | --- |
| PRARKRLELFNLG [G10F] | 0.158 |
| PRAFKRLELGNLG [R4F] | 0.203 |
| PRARKRLGLGNLG [E8G] | 0.16 |
| PRARKRLELGVLG [N11V] | 0.158 |
| PRARKRLECGNLG [L9C] | 0.131 |
| PCARKRLELGNLG [R2C] | 0.103 |
| PRARKRLELKNLG [G10K] | 0.072 |

Block 2
Target: RNA binding protein fox-1 homolog 2, RRM domain, GST-SBP tag (RBFOX2, Homo sapiens, UniProt O43251-10, residues 100-194)
Technique: RNA Bind-n-Seq
Form: RNA
Matrix: in vitro
Concentration: 365 nM
Setting: natural RNA segment, single round, ends assumed
Relative to: no-protein control
Direction: higher = stronger binding
Construct (chain): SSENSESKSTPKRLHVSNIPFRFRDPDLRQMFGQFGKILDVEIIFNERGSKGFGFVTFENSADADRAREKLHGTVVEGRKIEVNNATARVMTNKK
| Oligonucleotide | RBNS enrichment (R) |
| --- | --- |
| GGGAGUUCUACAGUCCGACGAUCUGGGGUCAUUACAAGACCCCUUGGGGGUGCUGCUUUGCUGCCUUCAAGAAUAAAAGCCUCUAUGAUCCAGAGUUGCUAUGCACCAAAUUUUGAUGCCUUUUAAAUACCUUUGGAAUUCUCGGGUGCCAA | 0.28 |
| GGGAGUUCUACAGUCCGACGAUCAACCCAAGUCCUUAGAGAAUUUGGGGACCAAUAGAAUAUGUGAUGUGUGAAUUUUCUUUAAAAAACUUAAGGAGUCUUUGCUACCUUCUGCUUGUUGAGUUGUUUUGGCAUGGAAUUCUCGGGUGCCAA | 1.64 |
| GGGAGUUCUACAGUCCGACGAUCGCUUGCUGGCCAGCACUCCUUGGCUCCCCUGCCGAACCACAGACAGACAGUUCAGAUUACCAGGAUAAUCCCAAGCAGUAUCUCCAGUCUCGGCUGGUAGUGGCCCAGAUUGGAAUUCUCGGGUGCCAA | 0.795 |
| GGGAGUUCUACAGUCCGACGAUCCCCGUGUCUGUCUGGCUCAUCCUUUCUCCUGCCCAGCCUCACACCUGAUCUCCCUUUCCUGUAGACUGCAGGUUGCUCCUGUCCCUUGAGAUCUCAGUUAGGAGACACUGUGGAAUUCUCGGGUGCCAA | 0.404 |
| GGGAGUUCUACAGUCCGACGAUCUCCUGAGGCUGCCCCAAGGCCUACGGGUUAAAGCCAAUAGCUGCUCACAUGCAACAACGGAAGGAGAUUCAAGAGUCUGCCAUCCCUUAGCAGCCCCUAAGUGGGCCUCUUGGAAUUCUCGGGUGCCAA | 0.231 |
| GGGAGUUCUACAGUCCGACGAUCACCUCCAUGUUGUGAAGGCAUCUGUUCAGUGAAGCACUACGAAAAUUUGAAACCAAGGGACAAGACAACCUGCAGCUGACGCUCUGACAUUUCAUGACAGUUUCCUCUUUUGGAAUUCUCGGGUGCCAA | 0.445 |
| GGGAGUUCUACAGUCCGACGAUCAGAAGGCGUUGAGUAGACAGACUGUUGAGAGGCCACAGAGUGCACUUGGAAAAACUCAUUUCUGUGCUGCAAAGCAAUGGUGGGGAGGCGCAGUGCCGCGACUGCUGUAGUGGAAUUCUCGGGUGCCAA | 0.634 |
| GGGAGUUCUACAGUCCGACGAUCUCAUUGACUUCGGGCUGGACCGUUGCCCUCUGAGCAGAGAACAGACCCAUUUCUGGGAGCUGCCCGAGAUCACUGGAGAAGGCAGCCAGCAGCAGCUGCACUGGAACAGUUGGAAUUCUCGGGUGCCAA | 0.394 |

Block 3
Target: Histone acetyltransferase KAT6A, both winged helices, GST fusion (KAT6A, Homo sapiens, UniProt Q92794, residues 1-181)
Technique: protein binding microarray
Form: double-stranded DNA, one strand shown
Matrix: in vitro
Concentration: not given
Setting: 8-mer, flanks averaged, mean of 2 arrays, mostly near background
Relative to: not given
Direction: higher = stronger binding
Construct (chain): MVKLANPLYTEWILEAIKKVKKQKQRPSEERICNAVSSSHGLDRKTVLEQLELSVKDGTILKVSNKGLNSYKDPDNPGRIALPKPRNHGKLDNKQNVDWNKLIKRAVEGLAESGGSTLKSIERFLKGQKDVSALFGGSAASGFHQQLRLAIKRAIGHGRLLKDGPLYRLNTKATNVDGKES
| Oligonucleotide | E-score |
| --- | --- |
| ACGTTTCT | -0.251 |
| GCACCCCA | -0.0887 |
| CACAACCG | 0.0114 |
| CACTCCAA | -0.144 |
| ATCGGTGG | -0.0821 |
| ATTCGTAG | 0.0224 |
| TGTATTAA | -0.0387 |
| AGTCGATG | -0.176 |
| ACTGCGCC | 0.219 |
| GACTCCCA | -0.285 |
| GCGTGTCA | 0.238 |
| GAAACGCA | 0.143 |
| CCCATTCC | -0.298 |
| TATCATGA | -0.0595 |
| AGCAATAG | -0.108 |

Mixed results
| Molecule | target | assay | system | setting | scale | endpoint | value |
| --- | --- | --- | --- | --- | --- | --- | --- |
| PhoQ, residues 284 288 289 292 302 303 SLANKL | PhoP, residues 12 14 15 18 19 HEGLL (Escherichia coli, UniProt P23836) | Sort-seq, measured: YFP reporter | E. coli | PhoQ-PhoP variant library, with: 10 µM Mg2+ | relative to: high Mg2+ state, higher = stronger signaling | fold induction | 14.4 |
